Measured values of several laboratories.
A part holds a random share of what one study measured. Positions count from the first letter of the parent shown.

Set 1 — technique: RNA Bind-n-Seq; form: RNA; medium: in vitro; concentration: not given; reference: input RNA pool; reading: higher = stronger binding
Target: RING finger protein unkempt homolog, zinc fingers 1-6, GST-SBP tag (UNK, Homo sapiens, UniProt Q9C0B0, residues 30-357)
Chain of UniProt Q9C0B0 (30-357, looked up): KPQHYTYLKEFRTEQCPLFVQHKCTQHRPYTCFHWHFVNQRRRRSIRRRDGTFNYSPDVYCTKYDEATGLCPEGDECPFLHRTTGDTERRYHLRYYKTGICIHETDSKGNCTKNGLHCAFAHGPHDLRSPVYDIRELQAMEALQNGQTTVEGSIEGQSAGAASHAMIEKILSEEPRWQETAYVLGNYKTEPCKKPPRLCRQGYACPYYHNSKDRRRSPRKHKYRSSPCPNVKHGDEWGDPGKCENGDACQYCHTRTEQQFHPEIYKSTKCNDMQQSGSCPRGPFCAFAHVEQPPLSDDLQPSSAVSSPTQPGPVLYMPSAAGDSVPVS
Setting: RNA with constant flanks, human-mouse chimeric sites, ends assumed
With `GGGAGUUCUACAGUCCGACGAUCAGCACAACCCCAGCAAAGCUCAGGAACCCUUGUACAAGUGAACAAAACUGCACCAGCCCAUUUAGCUACAAAAAUGUGCUUAGUCUUACUGACAGAGGAGAAGUAUUCAAUGAACUUGUUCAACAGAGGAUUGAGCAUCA` the bound/input enrichment was 0.694 ratio.
`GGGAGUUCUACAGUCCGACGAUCAUUGUUGAAGCGAAUCCACUUUUAGAAGCAUUUGGAAAUGCGAAGACUGUUCGCAACAAUAAUAGCAGUCGAUUUGGAAAAUUUGUAGAAAUACAUUUCAAUGAAAAGAGUUCGGUUGUUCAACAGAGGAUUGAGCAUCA` gave a bound/input enrichment of 0.245 ratio.
`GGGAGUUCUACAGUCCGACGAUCGGAAGUACAUUAAUGGAGAUUGAUGGUGACAAAGGCAAGCAGGGCGGGCCCACCUACUACAUAGACACCAAUGCCCUCCGCGUGCCCAGGGAGAACAUGGAGGCCAUUUCACCUCUAAAGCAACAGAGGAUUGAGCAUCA` has a bound/input enrichment of 0.252 ratio.
The bound/input enrichment of `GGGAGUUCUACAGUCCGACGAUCCUGGCACUCUAUCAGAUAUAUUAAUUUUUUAAUGUAGAUGUAAUUUUAAAAAUGAAUGGCUAGUUUACACGUUUAACUAGGGUUUUACUACAUAUGUGUACAUAUGUAUAUAUAUAUAUACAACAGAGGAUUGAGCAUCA` is reported as 6.45 ratio.
`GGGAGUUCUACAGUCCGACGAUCAAAGAGUGGAUAGAAUGUGCACACGGGAUCGGUUAUACCCGGGCGAAAAAGGAGUGCAAGAUAGAGUUCGAUGACUUCGAAGAGUGCUUGCUUCGGUACAAAACGAUGAGGCGAAUGCAUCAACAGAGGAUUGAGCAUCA` gave a bound/input enrichment of 0.42 ratio.
`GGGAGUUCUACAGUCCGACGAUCACCUCCCCCUCCCGCCUCACCCCACCCCCGCUUUUUGAAAGUGUGUUGGCUUUUUUUUUCCUUCCCCAUACAAAGUGAUUACAGUUUCCCCCGCAAGGGUCUAUCGAAGGGCUUGACGGACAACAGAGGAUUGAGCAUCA` has a bound/input enrichment of 1.32 ratio.
The bound/input enrichment of `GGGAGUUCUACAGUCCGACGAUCGGACAUCUGUCAAAUUGUUAUGUUCCUGUGAAACAAGUGAACACUCUGAUACACUUCAUUUAGUUGUACAUCUGUAUGAUAGAGAAACAGAAAUCUAUUAAUCCAAGCAAUGUGUCACUUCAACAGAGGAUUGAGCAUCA` is reported as 0.199 ratio.
`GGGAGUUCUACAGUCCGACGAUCAUCCAGUACUCCAAUCACAAAGAACUAAAGACAGAUAAUACAUUAAACCAACGUGCUCAGGCAGUUCUUCAAGCUGUGACAGCGGUCCAGACAGCAAAUACUCCUCUUAGUGGCACCACACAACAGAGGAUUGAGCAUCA` has a bound/input enrichment of 0.357 ratio.
With `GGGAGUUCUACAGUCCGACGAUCCUGAGGAAUACCACUGAGAGACCUUAAAAGAAUCAUUUUGACGGCUCGUUCGUGCAAGAAUAGUCACUGAUCGGGAAACUGGUUCUUCCAAAGGGUUUGGUUUUGUAGACUUUAAUAGUGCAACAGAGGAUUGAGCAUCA` the bound/input enrichment was 0.837 ratio.
`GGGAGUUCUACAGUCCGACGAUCGUAUACGGUUAUCGAGGAAAGGACUGUAGAGCGAAUGUAUACCUGCUUCCCACAGGGAAAAUAGUUUAUUUUAUCGCCUCAGUGGUAGUCCUGUUUAAUUAUGAGGAGAGGACUCAGCGACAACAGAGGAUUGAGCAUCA` gave a bound/input enrichment of 19.9 ratio.
With `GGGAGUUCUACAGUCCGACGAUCGAAUCCUCCCGUGCAAAAUUUUGCAACACCAAGCUCACAGCAGCAGCUCCAUAGUCACAGUAGGGUAGUUUUGGGGCUCUGUGGCCAGGGUUUUAUUCACAUGCAGGUUUGGAAAAUGUACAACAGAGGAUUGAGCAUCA` the bound/input enrichment was 0.77 ratio.

Set 2 — organism: Saccharomyces cerevisiae; read-out: binding; technique: competitive growth deep sequencing; form: peptide; strain: cyclin D3-Cln2 fusion strain; setting: peptide tiling library; reading: direction not given
With `NEGVSNAVRRSLYIRD` the enrichment score was -1.85.
With `LENIEPLQVSFAVLSS` the enrichment score was 0.866.
With `GPVKLEFDVSDGAT` the enrichment score was 0.256.
`AKRSLGFLPQPVPL` has an enrichment score of -1.19.
With `NSMKELNFSHLPSNSV` the enrichment score was 0.155.
`SPPRGRRLFPPGPAGF` gave an enrichment score of -0.447.
The enrichment score of `GTPKRCLDLSNLSSGE` is reported as 2.26.
`YLYLLLTQSLWCRV` has an enrichment score of -1.17.
The enrichment score of `DVSERGYVILPNDYFE` is reported as 1.21.

Set 3 — technique: DHFR PCA, deep sequencing; medium: yeast; added: (+)-ABA 2500 µM; reference: wild-type fitted maximum; reading: higher = stronger binding
Target: ABI1, truncated, D143A, DHFR fusion (Arabidopsis thaliana)
Setting: methotrexate growth selection, single substitutions
Parent: PYL1, truncated, DHFR fusion (Arabidopsis thaliana); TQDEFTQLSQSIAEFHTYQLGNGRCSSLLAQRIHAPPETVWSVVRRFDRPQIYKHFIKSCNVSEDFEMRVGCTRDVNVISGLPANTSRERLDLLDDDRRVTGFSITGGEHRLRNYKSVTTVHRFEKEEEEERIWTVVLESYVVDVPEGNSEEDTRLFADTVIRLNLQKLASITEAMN
For `I172E`, “relative binding score” read 87.2%.
For `N165G`, “relative binding score” read 71%.
For `F103H`, “relative binding score” read 78.1%.
Under “relative binding score”, `G102E` is recorded as 71.9%.
For `T86V`, “relative binding score” read 89.1%.
`E147Q` — result for “relative binding score”: 95%.
For `V143D`, “relative binding score” read -7.44%.
`V43Q`: “relative binding score” 89%.
Under “relative binding score”, `F56V` is recorded as 59.1%.
For `T39R`, “relative binding score” read 97%.
`P83Q`: “relative binding score” 76.7%.

Further values, each from its own experiment
For `PhoQ, residues 284 288 289 292 302 303 TNASYF`, the fold induction was 7.09 (PhoP, residues 12 14 15 18 19 LHHSG (Escherichia coli, UniProt P23836); Sort-seq, measured: YFP reporter; E. coli; PhoQ-PhoP variant library, added: 10 µM Mg2+; reference: high Mg2+ state, higher = stronger signaling).

A few entries again (set 1):
With `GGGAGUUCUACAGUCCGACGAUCAGCACAACCCCAGCAAAGCUCAGGAACCCUUGUACAAGUGAACAAAACUGCACCAGCCCAUUUAGCUACAAAAAUGUGCUUAGUCUUACUGACAGAGGAGAAGUAUUCAAUGAACUUGUUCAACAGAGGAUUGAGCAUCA` the bound/input enrichment was 0.694 ratio.
`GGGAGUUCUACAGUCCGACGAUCAUUGUUGAAGCGAAUCCACUUUUAGAAGCAUUUGGAAAUGCGAAGACUGUUCGCAACAAUAAUAGCAGUCGAUUUGGAAAAUUUGUAGAAAUACAUUUCAAUGAAAAGAGUUCGGUUGUUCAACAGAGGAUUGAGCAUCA` gave a bound/input enrichment of 0.245 ratio.
`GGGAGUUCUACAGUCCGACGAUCGGAAGUACAUUAAUGGAGAUUGAUGGUGACAAAGGCAAGCAGGGCGGGCCCACCUACUACAUAGACACCAAUGCCCUCCGCGUGCCCAGGGAGAACAUGGAGGCCAUUUCACCUCUAAAGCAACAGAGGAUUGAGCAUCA` has a bound/input enrichment of 0.252 ratio.
The bound/input enrichment of `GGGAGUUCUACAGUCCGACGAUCCUGGCACUCUAUCAGAUAUAUUAAUUUUUUAAUGUAGAUGUAAUUUUAAAAAUGAAUGGCUAGUUUACACGUUUAACUAGGGUUUUACUACAUAUGUGUACAUAUGUAUAUAUAUAUAUACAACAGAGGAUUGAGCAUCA` is reported as 6.45 ratio.
`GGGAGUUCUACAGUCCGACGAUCAAAGAGUGGAUAGAAUGUGCACACGGGAUCGGUUAUACCCGGGCGAAAAAGGAGUGCAAGAUAGAGUUCGAUGACUUCGAAGAGUGCUUGCUUCGGUACAAAACGAUGAGGCGAAUGCAUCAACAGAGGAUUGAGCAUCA` gave a bound/input enrichment of 0.42 ratio.
